Results of several laboratories.
Protocols differ between the studies behind these lines. “And” joins repeats or separate records; there may be more than shown. ± gives the spread as reported.

| Structure (SMILES) | assay | system | setting | tissue uptake |
| --- | --- | --- | --- | --- |
| CCCC[C@H](NC(=O)CNC(=O)CNC(=O)[C@H](CCCCNC(=O)[C@H](CCN)NC(=O)C(C)c1ccc(CC(C)C)cc1)NC(=O)CN1CCN(CC(=O)O)CCN(CC(=O)O)CCN(CC(=O)O)CC1)C(=O)N[C@H]1CC(=O)NCCCC[C@@H](C(N)=O)NC(=O)[C@H](Cc2c[nH]c3ccccc23)NC(=O)[C@H](CCCNC(=N)N)NC(=O)[C@@H](Cc2ccccc2)NC(=O)[C@H](Cc2c[nH]cn2)NC1=O (stereo partly shown) [lutetium-177 labelled] | – | C57 mice, tumour-bearing, blood | 2 h | 0.19 ± 0.06 %ID/g |
| N#C[C@@H]1CCCN1C(=O)CNC(=O)c1ccnc2ccc(OCCCN3CCN(C(=O)CCc4ccc5c(c4)CN4CCN(Cc6cc(CCC(=O)O)ccc6O)CC(=O)[O][Al-]([18F])([O]C(=O)C4)[O]5)CC3)cc12 (stereo partly shown) | – | BALB/c nude mice, U-87 MG xenograft, kidney | 1 h | 1.74 ± 0.57 %ID/g |
| CC(C)C[C@H](NC(=O)[C@@H](CCCCNC(=O)[C@@H](Cc1ccccc1)NC(=O)CCCCCCCNC(=O)CN1CCN(CC(=O)O)CCN(CC(=O)O)CCN(CC(=O)O)CC1)NC(=O)[C@H](Cc1ccc(O)cc1)NC(=O)[C@H](CO)NC(=O)[C@H](Cc1c[nH]c2ccccc12)NC(=O)[C@H](Cc1c[nH]cn1)NC(=O)[C@@H]1CCC(=O)N1)C(=O)N[C@@H](CCCNC(=N)N)C(=O)N1CCC[C@H]1C(=O)NCC(N)=O [indium-111 labelled] | biodistribution | male athymic nude mice, DU-145 prostate cancer xenograft, tumor | intravenous, 0.037 MBq, 4 h post-injection | 0.32 ± 0.03 %ID/g |
| N#C[C@@H]1CCCN1C(=O)CNC(=O)c1ccnc2ccc(OCCCN3CCN(C(=O)CCc4ccc5c(c4)CN4CCN6CC(=O)[O][68Ga-]([O]C(=O)C4)([O]5)[O]c4ccc(CCC(=O)N5CCN(CCCOc7ccc8nccc(C(=O)NCC(=O)N9CCC[C@H]9C#N)c8c7)CC5)cc4C6)CC3)cc12 | – | BALB/c nude mice, U-87 MG xenograft, gallbladder | 1 h, blocked 60 min, with: DOTA-FAPI-04 40 nmol co-injected | 163 ± 40.4 %ID/g |
| O=C(NCC1OC2CCC=CCCC2O1)c1ccc([18F])nc1 (stereo not shown) | – | female BALB/c nude mice, LS174T tumour, kidneys | intravenous, 60 min, with: unmodified CC49 24 h before | 2.2 ± 0.7 %ID/g |
| O=C([O-])CN1CCN(CC(=O)[O-])CCN(CC(=O)NC[C@H]2CC[C@H](C(=O)N[C@H](Cc3cnc4ccccc4c3)C(=O)NCCCC[C@H](NC(=O)N[C@@H](CCC(=O)O)C(=O)O)C(=O)O)CC2)CCN(CC(=O)[O-])CC1.[64Cu+2] | ex vivo gamma counting | 22Rv1 tumour-bearing mice, bone | intravenous, 0.74 MBq, 1 h post-injection | 2.93 %ID/g |
| COc1ccc(Nc2nc(Nc3ccc(OCCOCCOCC[18F])cc3)ncc2Br)cc1 | – | ICR mice, S180 tumour, stomach | intravenous, 370 kBq, 5 min | 1.54 ± 0.08 %ID |
| CCCC[C@H](NC(=O)CCCCCCCNC(=O)CN1CCN(CC(=O)O)CCN(CC(=O)O)CC1)C(=O)N[C@H]1CC(=O)NCCCC[C@@H](C(N)=O)NC(=O)[C@H](Cc2c[nH]c3ccccc23)NC(=O)[C@H](CCCNC(=N)N)NC(=O)[C@@H](Cc2ccccc2)NC(=O)[C@H](Cc2c[nH]cn2)NC1=O [fluorine-18 labelled] | – | C57 mice B16-F10 melanoma, skin | intravenous, 0.37 MBq, 2 h | 1.09 ± 0.33 %ID/g |
| Cc1cc(C)n(CCN(CCN)CCCCCCNC(=O)[C@@H](N)Cc2c[nH]cn2)n1.[99Tc+].[C-]#[O+].[C-]#[O+].[C-]#[O+] | – | BALB/c nude mice, A549 xenograft, muscle | intravenous, 24 h | 0.07 ± 0.01 %IA/g |
| CCCC[C@H](NC(=O)COCCOCCNC(=O)CN1CCN(CC(=O)O)CCN(CC(=O)O)CC1)C(=O)N[C@H]1CC(=O)NCCCC[C@@H](C(N)=O)NC(=O)[C@H](Cc2c[nH]c3ccccc23)NC(=O)[C@H](CCCNC(=N)N)NC(=O)[C@@H](Cc2ccccc2)NC(=O)[C@H](Cc2c[nH]cn2)NC1=O [fluorine-18 labelled] | – | C57 mice, B16/F10 melanoma, lung | intravenous, 1 h, with: NDP-MSH 10 µg | 0.86 ± 0.38 %ID/g |
| COc1ccc2c(c1)C(C)(C)C(/C=C/C1=C(Oc3ccc(C(=O)NCCCCOc4cc(CN(Cc5ccccn5)Cc5ccccn5)cc(CN(Cc5ccccn5)Cc5ccccn5)c4)cc3)C(=C/C=C3/N(CCCCS(=O)(=O)[O-])c4ccc(OC)cc4C3(C)C)CCC1)=[N+]2CCCCS(=O)(=O)[O-].O=[N+]([O-])[O-].O=[N+]([O-])[O-].[99Tc+].[C-]#[O+].[C-]#[O+].[C-]#[O+].[Zn+2] | – | BALB/c mice, healthy, thyroid and trachea | intravenous, 0.74 MBq, 12 h post-injection | 0.98 %ID/g and 1.19 %ID/g and 1.27 %ID/g and 1.11 %ID/g |
| O=C(NCC1OC2CCC=CCCC2O1)c1ccc(COCCOCCOCC[18F])cc1 (stereo not shown) | – | healthy female BALB/c nude mice, skin | intravenous, 7.4 MBq per mouse, 120 min | 1.8 ± 0.1 %ID/g |
| COc1ccc(Nc2nc(Nc3ccc(OCCOCC[18F])cc3)ncc2Br)cc1 | – | ICR mice, S180 tumour-bearing, liver | intravenous, 370 kBq, 5 min | 3.52 ± 0.49 %ID/g |

Some of these lines once more:
| Structure (SMILES) | assay | system | setting | tissue uptake |
| --- | --- | --- | --- | --- |
| COc1ccc(Nc2nc(Nc3ccc(OCCOCCOCC[18F])cc3)ncc2Br)cc1 | – | ICR mice, S180 tumour, stomach | intravenous, 370 kBq, 5 min | 1.54 ± 0.08 %ID |
| N#C[C@@H]1CCCN1C(=O)CNC(=O)c1ccnc2ccc(OCCCN3CCN(C(=O)CCc4ccc5c(c4)CN4CCN6CC(=O)[O][68Ga-]([O]C(=O)C4)([O]5)[O]c4ccc(CCC(=O)N5CCN(CCCOc7ccc8nccc(C(=O)NCC(=O)N9CCC[C@H]9C#N)c8c7)CC5)cc4C6)CC3)cc12 | – | BALB/c nude mice, U-87 MG xenograft, gallbladder | 1 h, blocked 60 min, with: DOTA-FAPI-04 40 nmol co-injected | 163 ± 40.4 %ID/g |
